Measurements gathered from unrelated publications.
Numbered parts are unrelated; each lists some results of a single study.

Sample 1 — technique: DNA-protein interaction ELISA; form: double-stranded DNA, one strand shown; medium: in vitro, bacterial lysate; tested at: not given; notes: whole dsDNA probe, crude lysate protein; relative to: highest signal in screen; direction: higher = stronger binding
Target: Probable WRKY transcription factor 33, N-terminal DNA-binding domain (WRKY33, Arabidopsis thaliana, UniProt Q8S8P5, residues 169-264)
UniProt Q8S8P5, sequence (169-264, looked up): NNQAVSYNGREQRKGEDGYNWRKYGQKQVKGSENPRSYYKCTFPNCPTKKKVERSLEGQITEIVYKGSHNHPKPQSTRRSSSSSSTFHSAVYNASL
Strand	relative absorbance
AAAAAATTCACTTTTACCTTTGTGTTAAAA	23.1 % of maximum
AAAAAAGCGCGAATTCTAGAACTATAAAAA	28.8 % of maximum
AAAAAAACCCTGTGTCGGCCGATAAAAAA	20.8 % of maximum
AAAAAATCGGTACGCACCCCGGACTCAAAA	21.7 % of maximum
AAAAAACGTTGAACCTGGGCCTCAACAAAA	26.3 % of maximum

Sample 2 — technique: universal PBM; form: double-stranded DNA, one strand shown; medium: in vitro; tested at: not given; direction: higher = stronger binding
Target: Sal-like protein 4, full length isoform B (SALL4, Homo sapiens, UniProt Q9UJQ4-2, residues 1-616)
Notes: 8-mer, flanks averaged, mean of replicates
Strand	E-score
CGCGGCCA	-0.244
AGGAGAAG	-0.0682
CGCGGTAA	-0.085
AAAGCTTG	-0.00631
TCCATCGA	0.0258
GGCGAGAA	-0.062
AACTACTC	0.116

Sample 3 — technique: EMSA with sequencing; form: double-stranded DNA, one strand shown; medium: in vitro; tested at: 10 and 20 nM; relative to: negative control set to 0; direction: higher = stronger binding
Target: Hepatocyte nuclear factor 3-alpha (Foxa1, Mus musculus, UniProt P35582, residues 1-468, full length assumed)
UniProt P35582, sequence (whole entry, looked up): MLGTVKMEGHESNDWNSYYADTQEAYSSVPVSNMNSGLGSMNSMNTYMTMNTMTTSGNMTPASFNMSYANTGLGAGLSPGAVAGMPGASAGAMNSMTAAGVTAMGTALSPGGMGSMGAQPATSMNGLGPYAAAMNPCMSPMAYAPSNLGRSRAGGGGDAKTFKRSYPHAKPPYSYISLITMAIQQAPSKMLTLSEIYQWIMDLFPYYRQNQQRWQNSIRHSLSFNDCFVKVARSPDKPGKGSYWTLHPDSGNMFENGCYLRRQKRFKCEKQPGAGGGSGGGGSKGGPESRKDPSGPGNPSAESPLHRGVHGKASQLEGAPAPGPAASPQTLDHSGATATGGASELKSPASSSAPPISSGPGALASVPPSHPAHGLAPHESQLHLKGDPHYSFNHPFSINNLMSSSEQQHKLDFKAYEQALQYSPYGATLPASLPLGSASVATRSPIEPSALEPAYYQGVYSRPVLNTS
Notes: whole designed probe, mean of two concentrations, ends assumed
Shared flanks, not repeated: GTGAGCGGTGCCCATTGATGGGGAAC … TTTCACTGGGATCGTGGGGAC
Strand	normalised bound fraction [ratio]
CTAAAATTGTCTTTTTTAGCTGTATCATGATTGCTTAAAGGCCACTTTATCCATGCTTATTGAAACACTTTCAATAATTGGACACAAATATTTGTTTACATTGTTTCCTGCTTGCTAATTTATCCTCCTGCATTTCTTTAAAAGCATTCATTTGCAATCTTAGTCCTCTTTAAAGACATTGTTTTATTTGAAA	0.469
ACTATCATCCATTTTCAGAAAGAAAAATTTATGTAATGATAATGATAACCAAGGAATTATAACTAGCGGATAAAGTGAAAGTTCAGATGTCAAAGTAAACAGAGACTTCTTTGAGTTGATGTAATTCCTGAGAAAAAAATCATTTTACTATATAATAGAGATTATATAACAACTTTAATTTTCATCACAAGAG	0.386
TCTCCCCGTGTGGCATCAAGGCGGGCTCCCTATAGGAGCTGGTGTGGACGTCCGGGCGTGGGGTTAGGGCGGATGCGGGGATCGCGGGGCGGGTGTTGACATTGTGCTCTCACCAGGCGGATCGCCCCGACCCTCACTCCTGGCGTCTGAGTCTCTGGCGTAGCCCATGCTGAGTGGGCGGCTGGTCCTGGGT	0.138
CTGTTTGCTCAGAACCCTTCTCCCCACTTCCCCTCACCCTTTGGACCCTGGAACACACCAGGCCCATTCCTGAGGGCTTGAGAGCTGGGATCTCTGTTTACTCAGATAGGTTGTGCTGTCCTGGCCCTAAGGGCCCTAAGGGCTCTGCCTTCTGGGAGGTCCCTGAGCTGGTGCCAGGATGGGCAGTGGGCTG	0.399
AGGGAGTAGTGTTGACCCACCCCCACTCAACACTCAGTCCAGCCAGGCCAGCCCAGGAGGAAGTCATGTAGCCACGAATCTGCCCTGAATCACAGATGACTTTTCCTTAGCTTAGATTACAAAATTCATGACCACAGATAAATGGTACAACTCCTGGAATCAGGTTTTGTAGGGCTTGAAATGCATACAATTT	-0.0287

Mixed results
Substance	target	test	system	setting	how to read	endpoint	value
PhoQ, residues 284 288 289 292 302 303 SMYGEC	PhoP, residues 12 14 15 18 19 HEGLL (Escherichia coli, UniProt P23836)	Sort-seq, measured: YFP reporter	E. coli	PhoQ-PhoP variant library, together with: 10 µM Mg2+	relative to: high Mg2+ state, higher = stronger signaling	fold induction	0.988
